Results of several laboratories.
Protocols differ between the studies behind these lines. “And” joins repeats or separate records; there may be more than shown. Numbers after ± are the reported error.
uncharacterized protein: uncharacterized protein (Anopheles coluzzii, UniProt A0A6E8VQK1)
Sequence of UniProt D0VWV4 (whole entry, looked up): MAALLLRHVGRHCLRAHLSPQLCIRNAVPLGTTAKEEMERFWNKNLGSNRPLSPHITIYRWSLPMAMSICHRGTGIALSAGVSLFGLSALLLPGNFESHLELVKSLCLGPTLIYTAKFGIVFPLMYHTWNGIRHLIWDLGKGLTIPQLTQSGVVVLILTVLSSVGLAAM
Sequence of UniProt Q007T0 (whole entry, looked up): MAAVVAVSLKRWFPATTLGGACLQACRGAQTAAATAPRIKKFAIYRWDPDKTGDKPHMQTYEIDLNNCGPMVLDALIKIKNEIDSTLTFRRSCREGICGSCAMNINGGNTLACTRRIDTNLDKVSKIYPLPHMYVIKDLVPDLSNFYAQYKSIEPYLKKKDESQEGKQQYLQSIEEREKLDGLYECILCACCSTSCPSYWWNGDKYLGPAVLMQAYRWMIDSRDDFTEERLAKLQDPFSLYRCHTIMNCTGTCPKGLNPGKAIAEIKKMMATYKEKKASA
Sequence of UniProt A5GZW8 (whole entry, looked up): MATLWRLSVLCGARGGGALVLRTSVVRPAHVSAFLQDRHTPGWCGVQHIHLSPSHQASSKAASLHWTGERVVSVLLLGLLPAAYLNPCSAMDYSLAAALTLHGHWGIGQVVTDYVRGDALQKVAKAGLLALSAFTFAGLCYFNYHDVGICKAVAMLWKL
Sequence of UniProt P27361 (whole entry, looked up): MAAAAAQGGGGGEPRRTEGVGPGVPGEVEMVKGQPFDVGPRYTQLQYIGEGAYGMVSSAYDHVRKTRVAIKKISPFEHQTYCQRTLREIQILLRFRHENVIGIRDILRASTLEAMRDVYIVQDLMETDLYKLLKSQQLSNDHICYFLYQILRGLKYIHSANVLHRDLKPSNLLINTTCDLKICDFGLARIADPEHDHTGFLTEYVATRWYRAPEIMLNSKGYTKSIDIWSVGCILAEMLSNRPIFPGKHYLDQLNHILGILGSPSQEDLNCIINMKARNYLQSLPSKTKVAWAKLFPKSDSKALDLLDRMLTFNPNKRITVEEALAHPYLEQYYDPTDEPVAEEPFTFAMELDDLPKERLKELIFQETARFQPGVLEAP
Sequence of UniProt Q92616 (whole entry, looked up): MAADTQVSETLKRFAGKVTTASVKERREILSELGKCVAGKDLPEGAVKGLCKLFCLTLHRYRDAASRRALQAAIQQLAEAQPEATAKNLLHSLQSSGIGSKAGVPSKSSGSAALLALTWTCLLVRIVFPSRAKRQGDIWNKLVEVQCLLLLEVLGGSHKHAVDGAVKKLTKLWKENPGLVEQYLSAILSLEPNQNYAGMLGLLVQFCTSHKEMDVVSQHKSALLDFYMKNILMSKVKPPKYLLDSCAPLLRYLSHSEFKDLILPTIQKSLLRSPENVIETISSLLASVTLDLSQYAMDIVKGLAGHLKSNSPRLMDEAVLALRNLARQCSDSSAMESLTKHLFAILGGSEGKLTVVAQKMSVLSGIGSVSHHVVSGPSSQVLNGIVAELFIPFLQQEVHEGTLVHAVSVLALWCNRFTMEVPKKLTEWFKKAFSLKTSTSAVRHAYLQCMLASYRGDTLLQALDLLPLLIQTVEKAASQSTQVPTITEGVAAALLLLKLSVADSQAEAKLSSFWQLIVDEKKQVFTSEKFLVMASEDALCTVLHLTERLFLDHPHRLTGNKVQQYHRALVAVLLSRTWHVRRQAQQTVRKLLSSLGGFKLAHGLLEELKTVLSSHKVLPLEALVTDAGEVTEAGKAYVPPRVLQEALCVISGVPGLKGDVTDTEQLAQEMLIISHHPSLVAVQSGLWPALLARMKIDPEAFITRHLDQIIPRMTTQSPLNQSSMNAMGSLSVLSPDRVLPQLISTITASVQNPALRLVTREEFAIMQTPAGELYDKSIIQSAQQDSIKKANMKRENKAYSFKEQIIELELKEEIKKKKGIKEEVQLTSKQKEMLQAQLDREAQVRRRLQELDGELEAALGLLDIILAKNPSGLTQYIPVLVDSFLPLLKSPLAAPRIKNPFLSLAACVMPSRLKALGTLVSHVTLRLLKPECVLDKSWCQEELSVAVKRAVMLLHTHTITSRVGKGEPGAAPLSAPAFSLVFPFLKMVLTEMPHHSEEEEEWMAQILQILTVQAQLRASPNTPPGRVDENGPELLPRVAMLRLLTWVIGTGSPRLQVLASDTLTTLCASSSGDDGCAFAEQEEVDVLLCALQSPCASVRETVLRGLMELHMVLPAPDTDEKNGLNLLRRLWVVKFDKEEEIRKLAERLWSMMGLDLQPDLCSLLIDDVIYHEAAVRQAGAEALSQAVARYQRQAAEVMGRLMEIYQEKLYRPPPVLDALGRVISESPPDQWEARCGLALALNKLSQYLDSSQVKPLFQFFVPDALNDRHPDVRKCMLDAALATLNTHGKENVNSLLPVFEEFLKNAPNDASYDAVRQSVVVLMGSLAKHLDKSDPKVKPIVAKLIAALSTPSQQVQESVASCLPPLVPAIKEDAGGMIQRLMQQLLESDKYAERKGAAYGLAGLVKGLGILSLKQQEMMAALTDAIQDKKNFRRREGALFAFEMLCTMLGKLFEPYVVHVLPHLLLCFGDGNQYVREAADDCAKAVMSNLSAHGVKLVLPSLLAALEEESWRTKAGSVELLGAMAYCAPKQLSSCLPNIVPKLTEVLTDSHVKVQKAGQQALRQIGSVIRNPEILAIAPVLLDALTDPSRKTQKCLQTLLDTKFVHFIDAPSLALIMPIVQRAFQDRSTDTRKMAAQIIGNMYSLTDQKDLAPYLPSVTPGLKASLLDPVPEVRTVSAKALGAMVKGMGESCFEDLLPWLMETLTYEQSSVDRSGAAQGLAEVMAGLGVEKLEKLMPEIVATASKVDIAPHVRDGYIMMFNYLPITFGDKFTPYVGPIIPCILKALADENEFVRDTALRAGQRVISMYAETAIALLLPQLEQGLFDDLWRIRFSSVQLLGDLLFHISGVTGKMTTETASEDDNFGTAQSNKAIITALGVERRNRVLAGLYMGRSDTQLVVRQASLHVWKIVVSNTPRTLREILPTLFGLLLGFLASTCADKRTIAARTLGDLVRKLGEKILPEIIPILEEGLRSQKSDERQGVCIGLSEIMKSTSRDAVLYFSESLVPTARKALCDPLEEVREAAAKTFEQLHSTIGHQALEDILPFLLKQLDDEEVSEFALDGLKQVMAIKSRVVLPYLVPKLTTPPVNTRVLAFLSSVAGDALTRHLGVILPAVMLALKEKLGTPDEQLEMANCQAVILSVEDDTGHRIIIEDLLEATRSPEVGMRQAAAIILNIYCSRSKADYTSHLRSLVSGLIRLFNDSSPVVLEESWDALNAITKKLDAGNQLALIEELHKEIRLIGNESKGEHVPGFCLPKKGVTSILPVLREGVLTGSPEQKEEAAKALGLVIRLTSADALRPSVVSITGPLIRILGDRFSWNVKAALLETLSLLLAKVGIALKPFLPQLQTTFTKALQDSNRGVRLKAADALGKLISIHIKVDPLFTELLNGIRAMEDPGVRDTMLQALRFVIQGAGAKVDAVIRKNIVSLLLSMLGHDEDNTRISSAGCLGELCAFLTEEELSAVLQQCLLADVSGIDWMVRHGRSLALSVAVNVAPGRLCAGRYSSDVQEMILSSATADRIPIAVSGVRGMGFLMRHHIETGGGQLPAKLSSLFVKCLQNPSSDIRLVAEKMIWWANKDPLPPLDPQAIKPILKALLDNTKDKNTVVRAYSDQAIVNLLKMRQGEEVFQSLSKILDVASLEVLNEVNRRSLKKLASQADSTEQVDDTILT
Sequence of UniProt P45984 (whole entry, looked up): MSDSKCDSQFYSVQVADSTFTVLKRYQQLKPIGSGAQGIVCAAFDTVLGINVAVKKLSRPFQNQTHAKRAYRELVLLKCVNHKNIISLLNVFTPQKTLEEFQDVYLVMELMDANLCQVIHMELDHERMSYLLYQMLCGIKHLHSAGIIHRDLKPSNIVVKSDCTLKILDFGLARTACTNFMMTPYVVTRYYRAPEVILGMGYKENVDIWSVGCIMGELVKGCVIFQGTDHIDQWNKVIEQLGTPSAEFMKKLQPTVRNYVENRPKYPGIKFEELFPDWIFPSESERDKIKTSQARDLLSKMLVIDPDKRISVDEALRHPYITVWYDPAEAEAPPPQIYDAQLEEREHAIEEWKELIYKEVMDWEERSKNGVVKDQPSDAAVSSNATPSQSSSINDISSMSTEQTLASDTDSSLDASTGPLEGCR
Sequence of UniProt P62136 (whole entry, unmodified, looked up): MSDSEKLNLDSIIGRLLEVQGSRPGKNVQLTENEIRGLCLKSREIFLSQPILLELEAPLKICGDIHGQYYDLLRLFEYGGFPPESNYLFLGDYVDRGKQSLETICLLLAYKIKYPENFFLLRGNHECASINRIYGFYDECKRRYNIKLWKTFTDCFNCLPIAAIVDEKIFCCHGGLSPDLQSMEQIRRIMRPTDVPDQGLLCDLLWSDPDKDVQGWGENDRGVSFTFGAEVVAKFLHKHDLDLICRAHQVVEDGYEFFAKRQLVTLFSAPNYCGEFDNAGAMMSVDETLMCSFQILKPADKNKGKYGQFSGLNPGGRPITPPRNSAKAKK
Sequence of UniProt P04756 (whole entry, unmodified, looked up): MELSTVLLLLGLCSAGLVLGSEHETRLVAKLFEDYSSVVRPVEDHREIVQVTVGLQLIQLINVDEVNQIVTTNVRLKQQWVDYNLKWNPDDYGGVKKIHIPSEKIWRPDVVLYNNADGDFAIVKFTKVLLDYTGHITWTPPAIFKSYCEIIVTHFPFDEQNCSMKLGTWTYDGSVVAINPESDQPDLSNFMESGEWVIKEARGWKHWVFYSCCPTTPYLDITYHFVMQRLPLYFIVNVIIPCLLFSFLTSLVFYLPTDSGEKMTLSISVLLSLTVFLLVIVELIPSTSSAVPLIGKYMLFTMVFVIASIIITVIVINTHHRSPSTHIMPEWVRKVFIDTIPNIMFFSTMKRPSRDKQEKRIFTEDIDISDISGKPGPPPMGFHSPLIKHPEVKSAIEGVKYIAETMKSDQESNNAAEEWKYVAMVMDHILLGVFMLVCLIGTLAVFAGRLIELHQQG

Compound	target	assay	system	conditions	how to read	quantity	value
O=C(Nc1cccnn1)N1CCC(=Cc2cccc(Oc3ccc(C(F)(F)F)cn3)c2)CC1	PRKD2 (Homo sapiens, UniProt Q9BZL6)	kinase activity, inhibitor	–	10 µM, human, added: MAPKAPK substrate	–	inhibition	2%
O=C(O)c1cccc(C(N(Cc2ccccc2)C(=O)c2cccs2)P(=O)(O)O)n1 (stereo not drawn)	blaNDM-1 (Klebsiella pneumoniae, UniProt C7C422)	inhibitor	–	added: nitrocefin	–	dissociation half-life	9.1 ± 0.4 min
CCOC(=O)COc1ccc2c(=O)c3ccccc3oc2c1	ache (Electrophorus electricus, UniProt O42275)	enzyme activity	–	1.68 µM, added: substrate 0.43 mM	higher = faster reaction	reaction velocity	0.0006 a.u.
Cc1nn(C)cc1-c1nc2c(N3CCN(Cc4ccc(Cl)cc4)CC3)c(Cl)cnc2[nH]1	BMP2K (Homo sapiens, UniProt Q9NSY1)	KINOMEscan	–	1 µM	reference: DMSO control	remaining binding	6.7%
C[C@H]1CN(c2n[nH]c3nc(N[C@H]4CC[C@H](NS(=O)(=O)CCC(F)(F)F)CC4)ncc23)CCO1	Stalled ribosome sensor GCN1 (Homo sapiens, UniProt Q92616)	Kinobeads competition, measured: GCN1L1	–	20 µM, unit not given	reference: vehicle	remaining binding	1.14
CN(C(=O)n1cnc(-c2ccc[n+]([O-])c2)c1)C1CCCCC1	CCKAR (Homo sapiens, UniProt P32238)	radioligand binding	–	10 µM, added: [3H]L-364,718	–	inhibition	4%
O=C(O)COP(=O)(O)O	TPI1 (Saccharomyces cerevisiae, UniProt P00942, Y208S)	enzyme activity, competitive inhibitor, GPDH/NADH-coupled	–	pH 6.4, 25 °C, ionic strength 0.1 NaCl, added: glyceraldehyde 3-phosphate substrate	reference: mutant over wild type	Ki ratio	63
Nc1ncc(-c2nc(N3CCOCC3)nc(N3CCOCC3)n2)c(C(F)F)n1	NMDA receptor	radioligand binding, antagonist ligand	–	10 µM	reference: control	remaining binding	99.6%
Cc1ccc([C@H]2C[C@@H]2COc2cc(NCc3nnc(C)s3)nc(C)n2)nc1	PDE1A (Homo sapiens, UniProt P54750)	enzyme activity, inhibitor, IMAP fluorescence polarization	–	–	reference: Ki target over Ki PDE10A2	selectivity ratio	> 2.01e+06 fold
C=C(CN(C(=O)c1c(C(F)F)nn(C)c1F)C1CC1)c1ccc(Cl)cc1Cl	SDHD/SDHC/SDHB (Sus scrofa, UniProt A5GZW8+D0VWV4+Q007T0)	enzyme activity, inhibitor, DCIP reduction	pig	0.4 µM, added: DCIP 160 µM	–	reaction velocity	0.0174 µM/s and 0.0152 µM/s and 0.0153 µM/s
CNC(=O)Oc1ccccc1OC(C)C	uncharacterized protein	enzyme activity, inhibitor	Sf9 cell homogenate	0.004651 µM, 0.1667 h, added: α-naphthyl acetate substrate	reference: no inhibitor	remaining activity	99.4%
CC(=C\C=C\C(C)=C\[C@H](O)[C@@H](O)C[C@H](C)O)/C=C(C)/C=C/C(=O)O[C@H]1CCCC(=O)O[C@@H]([C@@H](C)C/C(C)=C/[C@@H](C)[C@H](O)C[C@@H](C)O)C/C=C(\C)C[C@@H]1C	Protein transport protein Sec61 subunit alpha isoform 1 (Homo sapiens, UniProt P61619)	Sec61-dependent translocation, inhibitor, measured: CD4 signal peptide-FLuc reporter	HEK293	concentration not given, 6 h	–	FLuc/RLuc ratio	0.471
CC(CCn1ccc(-c2ccc(-c3cnnn3Cc3ccccc3)cc2)cc1=O)(C(=O)NO)S(C)(=O)=O (stereo not drawn)	UDP-3-O-acyl-N-acetylglucosamine deacetylase (Pseudomonas aeruginosa, UniProt P47205)	fluorescence	–	37 °C	–	residence time	9 min
CC(C)[C@@H]1NC(=O)[C@H](C)OC(=O)[C@@H](C(C)C)NC(=O)[C@@H](C(C)C)OC(=O)[C@H](C(C)C)NC(=O)[C@H](C)OC(=O)[C@@H](C(C)C)NC(=O)[C@@H](C(C)C)OC(=O)[C@H](C(C)C)NC(=O)[C@H](C)OC(=O)[C@@H](C(C)C)NC(=O)[C@@H](C(C)C)OC1=O	Metalloendopeptidase OMA1, mitochondrial (OMA1, Homo sapiens, UniProt Q96E52)	Western blot	HEK293T, OMA1 siRNA knockdown	concentration not given	–	full-length Luke-S1 level	28.8 ± 9.1%
CC[C@H](C)[C@H](NC(=O)CNC(=O)[C@@H](N)CCCCN)C(=O)N[C@@H](CC(C)C)C(=O)N[C@@H](CCCCN)C(=O)N[C@@H](CCCNC(=N)N)C(=O)N[C@@H](CCC(=O)O)C(=O)N[C@@H](CCCCN)C(=O)N[C@@H](CCCNC(=N)N)C(=O)N[C@@H](CC(C)C)C(=O)N[C@@H](CCCNC(=N)N)C(=O)N[C@@H](CCCNC(=N)N)C(=O)N[C@@H](CCCCN)C(=O)N[C@@H](CC(N)=O)C(=O)N[C@H](C(=O)N[C@@H](Cc1c[nH]cn1)C(=O)N[C@@H](Cc1c[nH]c2ccccc12)C(=O)N1CCC[C@H]1C(=O)N[C@@H](CCC(=O)O)C(=O)N[C@@H](CCC(=O)O)C(=O)NCC(=O)N[C@@H](CCCCN)C(=O)N[C@@H](CC(C)C)C(=O)N[C@@H](CCCNC(=N)N)C(=O)N[C@@H](CCC(=O)O)C(=O)N[C@@H](Cc1ccc(O)cc1)C(=O)N[C@@H](Cc1ccccc1)C(=O)N[C@@H](Cc1ccc(O)cc1)C(=O)N[C@@H](Cc1ccccc1)C(=O)N[C@@H](CCC(=O)O)C(=O)N[C@@H](CC(C)C)C(=O)N[C@@H](CC(=O)O)C(=O)N[C@@H](CCC(=O)O)C(=O)N[C@@H](C)C(=O)N[C@@H](CCC(=O)O)C(=O)N[C@@H](CCCNC(=N)N)C(=O)N[C@H](C(=O)N[C@@H](CC(N)=O)C(=O)N[C@H](C(=O)O)C(C)C)C(C)C)C(C)C	PPP1CA (Homo sapiens, UniProt P62136)	binding, isothermal titration calorimetry	–	concentration not given, 25 °C, PP1α residues 7-330	–	enthalpy change ΔH	-93.7 ± 7.95 kJ/mol
c1ccc2c(c1)cc1ccc3cccc4ccc2c1c34	Ahr (Rattus norvegicus, UniProt P41738)	agonist, CALUX reporter	H4IIE	0.00126 µg/mL	–	agonist response	48.4%
O=C(NO)[C@H]1COC(c2c[nH]c3ccc(F)cc23)=N1	UDP-3-O-acyl-N-acetylglucosamine deacetylase (Pseudomonas aeruginosa, UniProt P47205, C40S)	isothermal titration calorimetry	–	concentration not given, 298 K, untagged protein, averaged	–	entropy change (ΔS)	0.026 kcal/mol/K

Compound	target	assay	system	conditions	how to read	quantity	value
O=P(O)(O)OC[C@H]1C[C@@](O)(CO)[C@@H](O)[C@H](O)[C@@H]1O	2-epi-valiolone synthase (Actinosynnema mirum, UniProt C6WFL3)	phosphate release	–	150 µM	–	apparent Vmax	1.8 ± 0.3 µM/min
O=C1c2ccccc2C(=O)C1C(=O)C(c1ccccc1)c1ccc(Cl)cc1 (stereo not drawn)	Nuclear receptor subfamily 1 group I member 3 (Homo sapiens, UniProt Q14994)	–	–	concentration not given	–	activity	inactive
COC(=O)[C@@]1(O)C[C@H]2O[C@]1(C)n1c3ccccc3c3c4c(c5c6ccccc6n2c5c31)C(=O)NC4	MAPK3 (Homo sapiens, UniProt P27361)	ADP-Glo	–	4.15 µM, added: MBP substrate	–	kinase activity	102% and 118% and 103%
[2H]c1c([2H])c([C@]2([2H])CCCN2C(=O)C(C)(C)Oc2ccc3cn[nH]c3c2)c([2H])c([2H])c1C([2H])([2H])[2H]	MAPK9 (Homo sapiens, UniProt P45984)	KINOMEscan	–	1 µM	reference: DMSO control	remaining binding	100%
Cc1cc(N2CCNCC2)nc2ccccc12	CHRM3 (Homo sapiens, UniProt P20309)	ERK1/2 phosphorylation, agonist	CHO cells	–	–	Emax	< 10%
CN1CCN(c2cc(-c3ccncc3)c(-c3ccc4ccccc4c3)nn2)CC1	UTS2R (Homo sapiens, UniProt Q9UKP6)	agonist, FLIPR	–	12.5 µM	–	activation	0.1%
O=C(Nc1cnccc1Cl)N1CCN(Cc2ccc3c(c2)OC(F)(F)O3)CC1	PTGER1 (Homo sapiens, UniProt P34995)	binding, measured: EP1	–	10 µM, human, added: [3H]prostaglandin E2	–	inhibition	13%
c1cncc([C@@H]2CCCCN2)c1	Chrnd/Chrna1/Chrne (Mus musculus, UniProt P02716+P04756+P20782, G173K/S470W)	single-channel kinetics	–	K chain side site	–	kon	9e+08 M⁻¹ s⁻¹
N[C@@H](Cc1ccc(O)cc1)C(=O)O	Iodotyrosine deiodinase (Haliscomenobacter hydrossis, UniProt F4KU78)	binding, fluorescence	–	–	reference: iodotyrosine over compound, higher = weaker than iodotyrosine	affinity ratio	≥ 100 fold
COc1cc(Nc2ncc(F)c(Nc3ccc4c(n3)NC(=O)C(C)(C)O4)n2)cc(OC)c1OC	PDGFRA (Homo sapiens, UniProt P16234)	KINOMEscan	–	10 µM	–	inhibition	100%
COc1cc(N)c(Cl)cc1C(=O)NC1CN2CCC1CC2 (stereo not drawn)	G-protein coupled receptor 15 (Homo sapiens, UniProt P49685)	β-arrestin recruitment, TANGO luminescence, measured: GPR15	–	concentration not given	reference: basal luminescence	log2 fold change	0.652
CNC(=O)Oc1cccc2c1OC(C)(C)O2	uncharacterized protein	enzyme activity, inhibitor	Sf9 cell homogenate	9.302 µM, 0.1667 h, added: α-naphthyl acetate substrate	reference: no inhibitor	remaining activity	47.2%
CC(C)C[C@H](NC(=O)[C@H](Cc1ccccc1)NC(=O)[C@@H]1CCCN1C(=O)[C@H](CCCNC(=N)N)NC(=O)[C@H](CCC(=O)O)NC(=O)[C@@H]1CCCN1C(=O)[C@H](CO)NC(=O)[C@@H](N)CCC(=O)O)C(=O)O	Epithelial sodium channel subunit alpha (Homo sapiens, UniProt P37088)	binding, bio-layer interferometry	–	–	–	koff	0.354 s⁻¹
COc1ccc(N2C(=O)N(c3c(C)cccc3Cl)Cc3cnc(Nc4ccc(C5CCN(C)CC5)cc4OC)nc32)nc1	RPS6KA3 (Homo sapiens, UniProt P51812)	kinase activity, inhibitor	–	0.5 µM, kinase RSK2	–	inhibition	-0.47%
CCCCCCCCCCCCCC[N+](C)(C)C	Sodium channel protein type 4 alpha, BTX-activated (Oryctolagus cuniculus, UniProt G1SLL9)	–	–	–	reference: internal over external application	potency ratio	> 200 fold
O=C(c1ccc(Cl)cc1)N1CCN2C(=O)N(OC(=O)N3CCOc4ccccc43)C(=O)C2C1 (stereo not drawn)	Dipeptidyl peptidase 2 (Homo sapiens, UniProt Q9UHL4)	MS-based ABPP	SW-620 conditioned medium	10 µM, 1 h, 37 °C	reference: compound over DMSO, lower = more inhibition	mean protein ratio	1.05

Excerpt of the above:
Compound	target	assay	system	conditions	how to read	quantity	value
O=C(O)COP(=O)(O)O	TPI1 (Saccharomyces cerevisiae, UniProt P00942, Y208S)	enzyme activity, competitive inhibitor, GPDH/NADH-coupled	–	pH 6.4, 25 °C, ionic strength 0.1 NaCl, added: glyceraldehyde 3-phosphate substrate	reference: mutant over wild type	Ki ratio	63
COc1cc(N)c(Cl)cc1C(=O)NC1CN2CCC1CC2 (stereo not drawn)	G-protein coupled receptor 15 (Homo sapiens, UniProt P49685)	β-arrestin recruitment, TANGO luminescence, measured: GPR15	–	concentration not given	reference: basal luminescence	log2 fold change	0.652
Cc1cc(N2CCNCC2)nc2ccccc12	CHRM3 (Homo sapiens, UniProt P20309)	ERK1/2 phosphorylation, agonist	CHO cells	–	–	Emax	< 10%
CC(CCn1ccc(-c2ccc(-c3cnnn3Cc3ccccc3)cc2)cc1=O)(C(=O)NO)S(C)(=O)=O (stereo not drawn)	UDP-3-O-acyl-N-acetylglucosamine deacetylase (Pseudomonas aeruginosa, UniProt P47205)	fluorescence	–	37 °C	–	residence time	9 min
C[C@H]1CN(c2n[nH]c3nc(N[C@H]4CC[C@H](NS(=O)(=O)CCC(F)(F)F)CC4)ncc23)CCO1	Stalled ribosome sensor GCN1 (Homo sapiens, UniProt Q92616)	Kinobeads competition, measured: GCN1L1	–	20 µM, unit not given	reference: vehicle	remaining binding	1.14
